Measurements pooled from the literature.
Parts stem from different laboratories: compare values within a part only.
Chain of UniProt Q9H3Y6 (whole entry, looked up): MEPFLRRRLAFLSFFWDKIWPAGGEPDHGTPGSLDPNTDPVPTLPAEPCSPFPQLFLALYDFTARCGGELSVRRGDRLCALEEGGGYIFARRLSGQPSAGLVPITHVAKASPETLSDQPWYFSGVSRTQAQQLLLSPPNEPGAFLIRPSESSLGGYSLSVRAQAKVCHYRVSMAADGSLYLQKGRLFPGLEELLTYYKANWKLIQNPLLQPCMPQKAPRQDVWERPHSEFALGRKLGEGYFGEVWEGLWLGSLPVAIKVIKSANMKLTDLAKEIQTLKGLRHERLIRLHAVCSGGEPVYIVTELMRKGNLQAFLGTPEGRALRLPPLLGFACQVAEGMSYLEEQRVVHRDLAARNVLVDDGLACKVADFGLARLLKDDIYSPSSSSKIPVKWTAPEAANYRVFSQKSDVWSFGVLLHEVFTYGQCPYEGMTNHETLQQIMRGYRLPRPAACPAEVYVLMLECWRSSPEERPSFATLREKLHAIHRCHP
Chain of UniProt Q9NR20 (whole entry, looked up): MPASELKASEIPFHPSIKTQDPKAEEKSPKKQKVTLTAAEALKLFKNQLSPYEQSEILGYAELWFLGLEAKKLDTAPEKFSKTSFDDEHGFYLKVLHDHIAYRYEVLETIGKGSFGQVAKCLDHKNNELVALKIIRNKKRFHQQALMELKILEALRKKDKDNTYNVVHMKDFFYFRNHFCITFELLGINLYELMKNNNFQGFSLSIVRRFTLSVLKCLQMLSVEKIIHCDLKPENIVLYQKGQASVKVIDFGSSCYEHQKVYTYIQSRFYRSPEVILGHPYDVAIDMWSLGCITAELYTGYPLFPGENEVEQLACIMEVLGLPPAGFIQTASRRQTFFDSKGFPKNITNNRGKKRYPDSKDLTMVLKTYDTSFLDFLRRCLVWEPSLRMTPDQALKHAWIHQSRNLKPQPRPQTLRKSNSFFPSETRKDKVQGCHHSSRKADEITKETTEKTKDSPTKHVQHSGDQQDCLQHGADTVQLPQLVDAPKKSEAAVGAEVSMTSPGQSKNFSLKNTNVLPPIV

Block 1
Target: Interferon regulatory factor 1, DNA-binding domain (IRF1, Homo sapiens, UniProt P10914, residues 1-114)
Method: protein-binding microarray
Molecule type: hairpin DNA
Matrix: in vitro
Concentration: not given
Notes: whole hairpin DNA, median over replicate spots
Reference: not given
Direction: higher = stronger binding
Endpoint: median fluorescence
Target sequence (chain): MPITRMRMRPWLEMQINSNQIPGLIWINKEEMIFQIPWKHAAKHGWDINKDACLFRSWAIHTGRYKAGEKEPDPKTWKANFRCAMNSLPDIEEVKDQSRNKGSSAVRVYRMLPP
Oligonucleotide = GAGGCCCGAAAGTTAAACGCCTCCTGGCGTTTAACTTTCGGGCCTCACAC; result = 508 a.u.
Oligonucleotide = GAGGCCCGAAAGCGAAGCGCCTCCTGGCGCTTCGCTTTCGGGCCTCACAC; result = 534 a.u.
Oligonucleotide = GAGGCCCGAAAGTGCGACGCCTCCTGGCGTCGCACTTTCGGGCCTCACAC; result = 540 a.u.
Oligonucleotide = GAGGCCCGCGAGTGAAACGCCTCCTGGCGTTTCACTCGCGGGCCTCACAC; result = 487 a.u.
Oligonucleotide = GAGGCCCGAAACGGAAACGCCTCCTGGCGTTTCCGTTTCGGGCCTCACAC; result = 562 a.u.
Oligonucleotide = GAGGCCCGAAAGTCGAACGCCTCCTGGCGTTCGACTTTCGGGCCTCACAC; result = 538 a.u.
Oligonucleotide = GAGGCCCGAAAGCGAAACGCCTCCTGGCGTTTCGCTTTCGGGCCTCACAC (5mC at 7 33); result = 1080 a.u.
Oligonucleotide = GAGGCCCTAAAGTGAAACGCCTCCTGGCGTTTCACTTTAGGGCCTCACAC; result = 1080 a.u.

Block 2
Target: RING finger protein unkempt homolog, zinc fingers 1-6, SBP tag (UNK, Homo sapiens, UniProt Q9C0B0, residues 30-357)
Chain of UniProt Q9C0B0 (30-357, looked up): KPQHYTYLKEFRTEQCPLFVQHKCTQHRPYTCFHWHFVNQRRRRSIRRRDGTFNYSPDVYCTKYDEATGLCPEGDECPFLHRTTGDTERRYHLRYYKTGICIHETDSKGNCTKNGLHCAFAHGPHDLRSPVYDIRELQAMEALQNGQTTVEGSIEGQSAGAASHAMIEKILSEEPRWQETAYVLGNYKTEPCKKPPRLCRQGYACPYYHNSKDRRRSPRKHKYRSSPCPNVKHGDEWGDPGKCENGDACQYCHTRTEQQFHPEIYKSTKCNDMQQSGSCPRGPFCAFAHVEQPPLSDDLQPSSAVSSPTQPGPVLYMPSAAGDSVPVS
Method: RNA Bind-n-Seq
Molecule type: RNA
Matrix: in vitro
Concentration: 100 nM
Notes: RNA with constant flanks, vertebrate orthologous sites, ends assumed
Reference: input RNA pool
Direction: higher = stronger binding
Endpoint: bound/input enrichment
Oligonucleotide = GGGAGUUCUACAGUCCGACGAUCCAUGCACAUGACUCUAUCACCAAAAGCAAACACCUUUUUCAAAUUCAUUAAUAGCAUUGUUAGUAUUCCUUCCUUUCCUUCUGUUCCCCUAAUGCUUUAAACUAUUAGAAGUCCUGGUUCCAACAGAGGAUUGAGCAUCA; result = 2.8 ratio
Oligonucleotide = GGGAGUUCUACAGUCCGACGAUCCACAUCUGGUGAUAUUUGGCCUGGCCUUUCAGCUUAUGACAAUAGUCCCAGAUCACCCCAUAGUCCUUCACCUAUUGCUACACCACCUAGUCAGAGUUCAUCUUGCUCUGAUGCCCCCAUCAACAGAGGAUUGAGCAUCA; result = 0.851 ratio
Oligonucleotide = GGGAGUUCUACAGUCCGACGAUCUACAAGAAGAGCUCACAAACUCAAAGGAAAACUAGUAAAGAGUUUCUAAGAGUUAAAAGCUAGGAAAGAUUAGGACAACUUUACAAAUGAGCAAUUAAAAACAGAACAAAAAAGGAAAUGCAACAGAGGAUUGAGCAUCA; result = 0.317 ratio
Oligonucleotide = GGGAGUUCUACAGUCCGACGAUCUCCAGGCACAACUGACUGGUUCACAGCAUUCCUUACACACUUUUUUAUCAAGUGCAAGUGGAAGUGAUUUUCAGGAUACAUCUCGGCAGUCGCCUCUGUCUUGUAGCCCAGUUGGCGAUGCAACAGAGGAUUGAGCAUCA; result = 0.503 ratio
Oligonucleotide = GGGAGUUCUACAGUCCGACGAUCAUUCAAGCCCGUCGUGCCCUGGCCUCAUGUCGAAGGCGUAGAAGUGGACUUGGAGUCUAUUAGAAGGAAAAACAAGGCCGGACCGGAGCAGGAGCGCCGCGCUGGGGGAGGGGACAACCACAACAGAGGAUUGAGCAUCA; result = 0.557 ratio
Oligonucleotide = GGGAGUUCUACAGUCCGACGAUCUGCAUUAUUUGACCAGAGUUGAAGUGACAGAAUUUGAAGACAUCAAAUCAGGUUACAGAAUAGAUUUUUAUUUUGAUGAGAAUCCGUACUUUGAAAAUAAAGUUCUCUCCAAAGAGUUUCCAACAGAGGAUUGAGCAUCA; result = 0.48 ratio
Oligonucleotide = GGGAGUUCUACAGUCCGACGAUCCAUUUUUUAAUUUUCAUUUUAUUUUAUACAAUGUGUAGACAGUUCCCUGUUCUCUGCAUUUAGAAGUAUAAACAAUAUAAAUCUGUUAAUUCUGUAAGUAAUUUUUAUAAUUAUGAUGUACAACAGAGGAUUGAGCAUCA; result = 0.424 ratio
Oligonucleotide = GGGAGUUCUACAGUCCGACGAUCAAGAUGGUAGUUGUACAUUAUUUCAUUUAGAAAAUAUAAAAAUUCAUUUUGUUUUGAAGCUAGGUGUUAAACUGGAGUAGCUAUAUUAUACCCCUAGAGAAUGGGGCAGUUGUGCCCUUCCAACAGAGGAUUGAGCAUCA; result = 2.08 ratio

Further values, each from its own experiment
Structure (SMILES) = COc1cc2c(cc1OC)-c1[nH]nc(Nc3cccc(F)c3)c1C2; target = DYRK4 (Homo sapiens, UniProt Q9NR20); test = enzyme activity, inhibitor; setting = 0.5 µM; scale = reference: control; endpoint = remaining activity; result = 92.6%
Structure (SMILES) = Cc1c(C(=O)O)cc(-c2ccc(C3CCNCC3)cc2)c2ccc(-c3ccc(C(F)(F)F)cc3)cc12; target = SRMS (Homo sapiens, UniProt Q9H3Y6); test = cell-free assay, competition with immobilised ligand; setting = 1 µM; endpoint = remaining binding; result = 100%

Some of these lines once more (block 1):
Oligonucleotide = GAGGCCCGAAAGTCGAACGCCTCCTGGCGTTCGACTTTCGGGCCTCACAC; result = 538 a.u.
Oligonucleotide = GAGGCCCGAAAGCGAAACGCCTCCTGGCGTTTCGCTTTCGGGCCTCACAC (5mC at 7 33); result = 1080 a.u.
Oligonucleotide = GAGGCCCTAAAGTGAAACGCCTCCTGGCGTTTCACTTTAGGGCCTCACAC; result = 1080 a.u.
